Published values of several laboratories.
Protocols differ between the studies behind these lines. Values joined by “and” are separate records of one study, mostly repeats; a detail may differ. Numbers after ± are the reported error.
Chain of UniProt A5GZW8 (whole entry, looked up): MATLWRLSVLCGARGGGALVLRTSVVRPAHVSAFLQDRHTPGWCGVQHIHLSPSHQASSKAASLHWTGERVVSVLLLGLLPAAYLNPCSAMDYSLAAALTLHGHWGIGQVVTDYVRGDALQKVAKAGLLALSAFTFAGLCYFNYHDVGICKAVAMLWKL
Chain of UniProt P06276 (whole entry, looked up): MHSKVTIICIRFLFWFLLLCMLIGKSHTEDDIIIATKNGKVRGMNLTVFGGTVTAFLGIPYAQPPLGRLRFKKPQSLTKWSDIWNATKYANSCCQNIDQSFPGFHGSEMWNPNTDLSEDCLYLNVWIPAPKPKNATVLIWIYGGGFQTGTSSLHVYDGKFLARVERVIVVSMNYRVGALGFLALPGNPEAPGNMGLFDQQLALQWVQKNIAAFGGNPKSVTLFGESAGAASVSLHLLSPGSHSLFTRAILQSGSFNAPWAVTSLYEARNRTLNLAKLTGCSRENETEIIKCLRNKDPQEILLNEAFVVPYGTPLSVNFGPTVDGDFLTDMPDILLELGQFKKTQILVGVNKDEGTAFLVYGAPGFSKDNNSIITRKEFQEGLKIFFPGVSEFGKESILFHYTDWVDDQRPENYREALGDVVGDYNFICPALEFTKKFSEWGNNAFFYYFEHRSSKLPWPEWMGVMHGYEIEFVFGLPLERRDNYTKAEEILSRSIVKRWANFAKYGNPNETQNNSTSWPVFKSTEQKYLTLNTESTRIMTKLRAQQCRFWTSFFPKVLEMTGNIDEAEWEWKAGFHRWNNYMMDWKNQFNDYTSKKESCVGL
Chain of UniProt D0VWV4 (whole entry, looked up): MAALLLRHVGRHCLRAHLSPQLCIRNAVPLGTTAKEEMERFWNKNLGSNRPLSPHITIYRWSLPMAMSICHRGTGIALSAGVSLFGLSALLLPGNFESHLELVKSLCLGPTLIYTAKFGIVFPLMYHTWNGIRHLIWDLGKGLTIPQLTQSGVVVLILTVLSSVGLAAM
Chain of UniProt Q007T0 (whole entry, looked up): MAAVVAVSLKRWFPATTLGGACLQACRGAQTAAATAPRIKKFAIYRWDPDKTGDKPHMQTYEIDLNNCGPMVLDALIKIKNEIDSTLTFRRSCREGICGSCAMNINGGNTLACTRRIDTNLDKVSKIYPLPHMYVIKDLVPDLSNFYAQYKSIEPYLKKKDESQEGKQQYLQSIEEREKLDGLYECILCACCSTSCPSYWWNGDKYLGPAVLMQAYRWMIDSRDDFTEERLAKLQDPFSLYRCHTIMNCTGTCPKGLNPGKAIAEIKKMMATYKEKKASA
Chain of UniProt Q00975 (whole entry, looked up): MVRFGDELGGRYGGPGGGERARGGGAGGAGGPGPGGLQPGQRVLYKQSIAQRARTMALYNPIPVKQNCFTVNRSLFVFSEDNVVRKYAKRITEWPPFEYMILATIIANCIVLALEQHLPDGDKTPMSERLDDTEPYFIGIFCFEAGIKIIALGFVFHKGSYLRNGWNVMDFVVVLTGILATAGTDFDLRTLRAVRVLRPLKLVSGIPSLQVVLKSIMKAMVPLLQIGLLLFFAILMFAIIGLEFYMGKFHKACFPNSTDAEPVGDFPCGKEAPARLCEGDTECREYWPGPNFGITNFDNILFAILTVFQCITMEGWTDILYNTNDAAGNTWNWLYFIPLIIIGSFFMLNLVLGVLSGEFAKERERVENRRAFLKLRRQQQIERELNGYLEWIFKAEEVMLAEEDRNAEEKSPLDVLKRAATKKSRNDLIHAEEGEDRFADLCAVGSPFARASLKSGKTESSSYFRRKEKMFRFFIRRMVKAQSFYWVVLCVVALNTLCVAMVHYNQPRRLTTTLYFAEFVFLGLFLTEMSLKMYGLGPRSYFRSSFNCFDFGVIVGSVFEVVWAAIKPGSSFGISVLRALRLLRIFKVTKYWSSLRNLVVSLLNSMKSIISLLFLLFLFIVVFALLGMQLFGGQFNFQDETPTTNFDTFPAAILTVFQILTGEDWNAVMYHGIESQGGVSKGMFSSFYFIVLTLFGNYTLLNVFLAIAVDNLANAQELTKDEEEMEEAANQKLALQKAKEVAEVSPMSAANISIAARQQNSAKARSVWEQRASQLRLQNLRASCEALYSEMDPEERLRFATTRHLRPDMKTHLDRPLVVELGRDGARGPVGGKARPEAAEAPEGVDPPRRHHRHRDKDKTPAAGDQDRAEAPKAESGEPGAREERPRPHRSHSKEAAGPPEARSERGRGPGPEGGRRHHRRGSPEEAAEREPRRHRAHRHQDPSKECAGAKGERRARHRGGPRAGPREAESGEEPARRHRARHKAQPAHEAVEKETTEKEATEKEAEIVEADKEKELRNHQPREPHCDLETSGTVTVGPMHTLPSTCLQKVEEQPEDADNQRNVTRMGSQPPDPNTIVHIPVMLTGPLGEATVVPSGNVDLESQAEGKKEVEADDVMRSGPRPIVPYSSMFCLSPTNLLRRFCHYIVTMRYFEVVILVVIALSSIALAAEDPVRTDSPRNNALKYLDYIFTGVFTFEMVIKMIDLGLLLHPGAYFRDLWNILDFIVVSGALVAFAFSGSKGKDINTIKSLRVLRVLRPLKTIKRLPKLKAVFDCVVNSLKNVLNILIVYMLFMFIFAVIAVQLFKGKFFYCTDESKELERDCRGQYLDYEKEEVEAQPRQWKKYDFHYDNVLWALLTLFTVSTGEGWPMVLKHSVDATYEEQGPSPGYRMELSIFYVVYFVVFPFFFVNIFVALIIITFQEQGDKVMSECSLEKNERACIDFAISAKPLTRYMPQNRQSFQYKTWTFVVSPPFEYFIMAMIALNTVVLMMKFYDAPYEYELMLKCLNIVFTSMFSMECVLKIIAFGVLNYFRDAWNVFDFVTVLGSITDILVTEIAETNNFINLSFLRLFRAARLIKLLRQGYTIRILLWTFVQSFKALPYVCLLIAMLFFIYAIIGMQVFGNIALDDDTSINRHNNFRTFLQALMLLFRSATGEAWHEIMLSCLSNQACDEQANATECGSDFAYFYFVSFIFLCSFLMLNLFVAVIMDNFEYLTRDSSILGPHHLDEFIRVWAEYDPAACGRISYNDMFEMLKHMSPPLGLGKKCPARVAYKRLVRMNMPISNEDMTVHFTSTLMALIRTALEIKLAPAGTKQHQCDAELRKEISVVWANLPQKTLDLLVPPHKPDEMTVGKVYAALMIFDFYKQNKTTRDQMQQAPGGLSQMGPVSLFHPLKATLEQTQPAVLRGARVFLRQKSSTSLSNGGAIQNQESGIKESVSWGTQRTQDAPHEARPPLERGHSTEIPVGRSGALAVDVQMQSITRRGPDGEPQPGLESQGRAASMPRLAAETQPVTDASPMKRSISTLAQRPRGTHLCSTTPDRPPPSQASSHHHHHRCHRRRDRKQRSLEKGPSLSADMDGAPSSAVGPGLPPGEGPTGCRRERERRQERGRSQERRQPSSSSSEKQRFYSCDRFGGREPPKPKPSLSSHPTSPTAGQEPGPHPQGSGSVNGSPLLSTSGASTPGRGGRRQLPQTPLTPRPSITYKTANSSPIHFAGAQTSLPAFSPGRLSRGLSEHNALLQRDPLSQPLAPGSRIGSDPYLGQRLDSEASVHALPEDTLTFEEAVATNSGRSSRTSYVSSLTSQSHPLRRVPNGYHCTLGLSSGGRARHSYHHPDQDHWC
Chain of UniProt O60883 (whole entry, looked up): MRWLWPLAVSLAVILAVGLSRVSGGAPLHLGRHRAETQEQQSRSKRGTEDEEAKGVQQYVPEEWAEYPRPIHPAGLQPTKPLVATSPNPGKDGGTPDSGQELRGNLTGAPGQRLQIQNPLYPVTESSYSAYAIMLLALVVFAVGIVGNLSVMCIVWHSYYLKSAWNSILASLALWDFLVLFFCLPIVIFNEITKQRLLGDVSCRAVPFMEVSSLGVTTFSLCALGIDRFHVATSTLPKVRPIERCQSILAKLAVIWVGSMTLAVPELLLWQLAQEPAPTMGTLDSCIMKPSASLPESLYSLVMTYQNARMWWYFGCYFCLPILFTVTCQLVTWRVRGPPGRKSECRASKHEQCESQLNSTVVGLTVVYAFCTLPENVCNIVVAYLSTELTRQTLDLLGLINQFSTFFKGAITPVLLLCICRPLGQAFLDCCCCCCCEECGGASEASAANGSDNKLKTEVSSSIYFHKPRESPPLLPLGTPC
Chain of UniProt Q7RTX0 (whole entry, looked up): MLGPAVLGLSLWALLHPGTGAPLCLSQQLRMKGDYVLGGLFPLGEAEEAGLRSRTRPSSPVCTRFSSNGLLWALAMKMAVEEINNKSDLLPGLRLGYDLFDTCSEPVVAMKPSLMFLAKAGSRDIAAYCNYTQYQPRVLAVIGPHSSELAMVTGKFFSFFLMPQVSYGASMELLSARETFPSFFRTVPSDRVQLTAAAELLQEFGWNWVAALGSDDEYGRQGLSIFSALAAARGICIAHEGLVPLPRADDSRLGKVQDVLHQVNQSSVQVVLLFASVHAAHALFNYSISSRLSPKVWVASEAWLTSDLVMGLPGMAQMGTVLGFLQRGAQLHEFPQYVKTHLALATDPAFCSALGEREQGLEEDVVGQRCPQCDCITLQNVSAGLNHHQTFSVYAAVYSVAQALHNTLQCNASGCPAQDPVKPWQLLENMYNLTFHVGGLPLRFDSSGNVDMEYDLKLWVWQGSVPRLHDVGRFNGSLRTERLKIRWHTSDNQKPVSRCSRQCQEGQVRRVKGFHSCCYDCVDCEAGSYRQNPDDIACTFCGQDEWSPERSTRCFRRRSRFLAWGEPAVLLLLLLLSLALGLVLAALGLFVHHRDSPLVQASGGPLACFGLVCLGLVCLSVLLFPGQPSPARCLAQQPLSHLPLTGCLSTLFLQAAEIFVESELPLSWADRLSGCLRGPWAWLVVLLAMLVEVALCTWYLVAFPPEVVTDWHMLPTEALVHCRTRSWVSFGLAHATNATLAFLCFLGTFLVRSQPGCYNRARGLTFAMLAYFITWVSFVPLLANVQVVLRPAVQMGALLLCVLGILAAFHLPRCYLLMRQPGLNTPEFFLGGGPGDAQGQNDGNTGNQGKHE

SMILES | tested on | test | system | setting | scale | endpoint | value
CN1CCN(c2cc(-c3ccncc3)c(-c3ccc4ccccc4c3)nn2)CC1 | Apelin receptor (APLNR, Homo sapiens, UniProt P35414) | agonist, FLIPR |  | 12.5 µM |  | activation | -1.3%
COc1cc(CCC(=O)N2CCC(Cc3ccccc3)CC2)ccc1OC(=O)N(C)C | Cholinesterase (BCHE, Equus caballus, UniProt P81908) | Ellman | equine serum BuChE |  | baseline: AChE IC50 over BuChE IC50 | selectivity ratio | 6.6
COc1ccc2c3c([nH]c2c1)CCN(C)CC3.O=C(O)/C=C/C(=O)O | Voltage-dependent N-type calcium channel subunit alpha-1B (Homo sapiens, UniProt Q00975) | barium current, inhibitor, whole-cell patch clamp | HEK293T |  |  | Hill coefficient | 1.6
CC12CCC(CC1)C(C)(C)O2 | 1,8-cineole 2-endo-monooxygenase (cinA, Citrobacter braakii, UniProt Q8VQF6, Y81F) | product per NADPH consumed, substrate, GC-MS |  | Y81F enzyme variant |  | coupling efficiency | 105%
CC1(C)S[C@@H]2[C@H](NC(=O)Cc3ccccc3)C(=O)N2[C@H]1C(=O)O | Penicillin-binding protein 2B (Streptococcus pneumoniae, UniProt P0A3M6) | inhibitor |  |  |  | kinact/KI | 11000 ± 2300 M⁻¹ s⁻¹
C[C@H](CCC(=O)O)[C@H]1CC[C@H]2[C@@H]3CC[C@H]4C[C@@H](O)CC[C@]4(C)[C@H]3CC[C@]12C | MerR family transcriptional regulator (Clostridioides difficile, UniProt Q181I6) | differential scanning fluorimetry |  | 32 µM |  | delta Tm | ~5 °C
C=C(CN(C(=O)c1c(C(F)F)nn(C)c1F)C1CC1)c1ccc(Cl)cc1Cl | SDHD/SDHC/SDHB (Sus scrofa, UniProt A5GZW8+D0VWV4+Q007T0) | enzyme activity, inhibitor, DCIP reduction | pig | 0.4 µM, added: DCIP 20 µM |  | reaction velocity | 0.00382 µM/s and 0.0034 µM/s and 0.00291 µM/s
C[C@@H](O)[C@@H](CO)NC(=O)[C@@H](CCCNC(=N)N)NC(=O)[C@@H]1CCCN1C(=O)[C@@H]1CSSC[C@H](NC(=O)[C@H](Cc2ccccc2)NC(=O)CN2CCN(CC(=O)O)CCN(CC(=O)O)CCN(CC(=O)O)CC2)C(=O)N[C@@H](Cc2ccc(O)cc2)C(=O)N[C@@H](Cc2ccccc2)C(=O)N[C@@H](CCC(N)=O)C(=O)N[C@@H](CC(N)=O)C(=O)N1 [gallium-68 labelled] |  |  | Wistar rat, stomach | intravenous, 8 MBq, 30 min, group mean |  | tissue uptake | 0.35 %ID/g
Nc1ncnc2c1ncn2[C@@H]1O[C@H](COP(=O)(O)OP(=O)(O)O)[C@@H](O)[C@H]1O | Cell cycle histidine kinase CckA, G318A; cytoplasmic region (Caulobacter vibrioides, UniProt Q9X688, G318A) | binding, ITC |  | 25 °C, added: without c-di-GMP |  | -TΔS | -4.5 kcal/mol
O=C(Nc1cnccc1Cl)N1CCN(Cc2ccc3c(c2)OC(F)(F)O3)CC1 | Abhydrolase domain-containing protein 11 (Rattus norvegicus, UniProt D3ZXK4) | probe labelling, inhibitor, competitive ABPP with azido-FP probe, measured: Abhd11 | rat brain membrane fraction | 1 µM |  | inhibition | 52.7%
COc1ccc(N2C(=O)N(c3c(C)cccc3Cl)Cc3cnc(Nc4ccc(C5CCN(C)CC5)cc4OC)nc32)nc1 | AKT1 (Homo sapiens, UniProt P31749) | kinase activity |  | 0.5 µM |  | inhibition | 2.82%
Nc1cnn(-c2ccccc2)c(=O)c1Cl | PPARG (Homo sapiens, UniProt P37231) | reporter gene, agonist, β-lactamase reporter | HEK293-H cells | 24 h, nominal concentration | baseline: 10% of rosiglitazone maximum effect | EC10 | 23 µM
C[C@H]1CN(c2n[nH]c3nc(N[C@H]4CC[C@H](NS(=O)(=O)CCC(F)(F)F)CC4)ncc23)CCO1 | Delta(3,5)-Delta(2,4)-dienoyl-CoA isomerase, mitochondrial (Homo sapiens, UniProt Q13011) | Kinobeads competition, measured: ECH1 |  | 0.032 µM, unit not given | baseline: vehicle | remaining binding | 1.06
CN(C(=O)n1cnc(-c2ccc[n+]([O-])c2)c1)C1CCCCC1 | High affinity choline transporter 1 (Rattus norvegicus, UniProt Q9JMD7) | radioligand binding |  | 50 µM, added: [3H]hemicholinium-3 |  | inhibition | 11%
CCOC(=O)COc1ccc2c(=O)c3ccccc3oc2c1 | ache (Electrophorus electricus, UniProt O42275) | enzyme activity, inhibitor, Lineweaver-Burk plot |  | 3.36 µM | higher = faster reaction | Vmax | 0.0046 a.u.
[2H]c1c([2H])c([C@]2([2H])CCCN2C(=O)C(C)(C)Oc2ccc3cn[nH]c3c2)c([2H])c([2H])c1C([2H])([2H])[2H] | FGFR1 (Homo sapiens, UniProt P11362) | KINOMEscan |  | 1 µM | baseline: DMSO control | remaining binding | 80%

SMILES | tested on | test | system | setting | scale | endpoint | value
CCOC(=O)N1CCC(=C2c3ccc(Cl)cc3CCc3cccnc32)CC1 | Plasmodium falciparum |  | HB3 |  |  | IC50 | 6.31 µM
S=C(SSC(=S)N1CCCCC1)N1CCCCC1 | Cholinesterase (BCHE, Homo sapiens, UniProt P06276) |  |  | concentration not given, Triton |  | efficacy | -65.7 ± 18.6%
O=C(Nc1cccnn1)N1CCC(=Cc2cccc(Oc3ccc(C(F)(F)F)cn3)c2)CC1 | STK17A (Homo sapiens, UniProt Q9UEE5) | kinase activity, inhibitor |  | 10 µM, human |  | inhibition | 15%
Oc1ccc2c3c1O[C@H]1[C@@H](O)CC[C@@]4(O)[C@@H](C2)N(CC2CCC2)CC[C@]314 | GPR37L1 (Homo sapiens, UniProt O60883) | β-arrestin recruitment, TANGO luminescence |  | concentration not given | baseline: basal luminescence | log2 fold change | 0.297
O=C(c1ccc(Cl)cc1)N1CCN2C(=O)N(OC(=O)N3CCOc4ccccc43)C(=O)C2C1 (centres unmarked) | Cholinesterase (BCHE, Homo sapiens, UniProt P06276) | MS-based ABPP | SW-620 conditioned medium | 10 µM, 1 h, 37 °C | baseline: compound over DMSO, lower = more inhibition | peptide ratio | 1.26 and 1.27 and 1.23 and 1.07
NS(=O)(=O)C(F)(F)F | CA1 (Homo sapiens, UniProt P00915) | urea denaturation shift, Trp fluorescence |  | 10 µM, pH 6.0 |  | binding free energy | -9.2 kcal/mol
O=C(O)COP(=O)(O)O | TPI1 (Saccharomyces cerevisiae, UniProt P00942, Y208F) | enzyme activity, competitive inhibitor, GPDH/NADH-coupled |  | pH 8.3, 25 °C, ionic strength 0.1 NaCl, added: glyceraldehyde 3-phosphate substrate | baseline: mutant over wild type | Ki ratio | 60
CC1=C(C)C(=O)C(C)=C(C)C1=O | Reaction center protein M chain, QA site (pufM, Cereibacter sphaeroides, UniProt P0C0Y9) | charge recombination | Rhodobacter sphaeroides, LDAO detergent solution | pH 7.8, 298 K, quinone reconstituted in QA site |  | P+QA− recombination rate | 10 s⁻¹
Oc1ccc(-c2cccc(Cl)c2)cc1Cl | Androgen receptor (AR, Homo sapiens, UniProt P10275) | reporter gene, antagonist |  | 5 µM, added: DHT 2 nM | baseline: DHT 2 nM | maximum activity | 24%
c1cc(CN2CCCCC2)cc(OCCCNc2nc3ccccc3s2)c1 | Cholinesterase (BCHE, Homo sapiens, UniProt P06276) |  |  | concentration not given, Triton |  | efficacy | -95.2 ± 4.29%
CC[C@@H](C)[C@@H](NC(=O)[C@@H](Cc1ccc(O)cc1)NC(=O)[C@H]1CCCN1C(=O)[C@@H](CCCNC(=N)N)NC(=O)[C@H](N)Cc1c[nH]cn1)C(=O)N[C@H](C)C(=O)N[C@H](Cc1c[nH]cn1)C(=O)N[C@H](CCCNC(=N)N)C(=O)N[C@H](CCCCNC(=O)c1cccc(S(=O)(=O)F)c1)C(=O)N[C@H](Cc1ccc(O)cc1)C(=O)N[C@H](CO)C(=O)N[C@H](Cc1ccccc1)C(N)=O | Transferrin receptor protein 1 (Tfrc, Mus musculus, UniProt Q62351) | flow cytometry | RAW264.7 | 24 h, pH 6, replicate 1, unit not given | baseline: 0 h | surface TFRC expression | 0.83
CC(Oc1ccc(Cl)cc1Cl)C(=O)O (racemic) | T1R1/T1R3 (Homo sapiens, UniProt Q7RTX0+Q7RTX1) | luminescence | cells stably expressing T1R1/T1R3 | concentration not given, added: MSG |  | umami receptor response | no effect
CC(C)OC(=O)C1=CN(C(=O)c2ccc(F)c(F)c2)CC(C)(C)c2c1[nH]c1ccccc21 | Cholinesterase (BCHE, Homo sapiens, UniProt P06276) |  |  | concentration not given, Triton |  | efficacy | -58.9 ± 2.44%
O=C1CN(C(=O)CCn2ccnc2)CC(O)CN1CCc1ccccc1 (centres unmarked) | Cholinesterase (BCHE, Homo sapiens, UniProt P06276) | inhibitor |  | 1.5 µM |  | apparent Vmax | 0.24 ± 0.02 µM/min
CC[N+](CC)(CC)CCOc1ccc(/C=C/c2ccccc2)cc1 | Plasmodium falciparum |  | Dd2 |  |  | IC50 | 2 µM
COc1cc(Nc2ncc(F)c(Nc3ccc4c(n3)NC(=O)C(C)(C)O4)n2)cc(OC)c1OC | MAPK11 (Homo sapiens, UniProt Q15759) | KINOMEscan |  | 10 µM, p38-beta |  | inhibition | 0%

Excerpt of the above:
SMILES | tested on | test | system | setting | scale | endpoint | value
CC1(C)S[C@@H]2[C@H](NC(=O)Cc3ccccc3)C(=O)N2[C@H]1C(=O)O | Penicillin-binding protein 2B (Streptococcus pneumoniae, UniProt P0A3M6) | inhibitor |  |  |  | kinact/KI | 11000 ± 2300 M⁻¹ s⁻¹
O=C1CN(C(=O)CCn2ccnc2)CC(O)CN1CCc1ccccc1 (centres unmarked) | Cholinesterase (BCHE, Homo sapiens, UniProt P06276) | inhibitor |  | 1.5 µM |  | apparent Vmax | 0.24 ± 0.02 µM/min
CC[N+](CC)(CC)CCOc1ccc(/C=C/c2ccccc2)cc1 | Plasmodium falciparum |  | Dd2 |  |  | IC50 | 2 µM
